Experimental data from different studies.
Protocols differ between the studies behind these lines. Several values in a cell are separate wells, animals, samples, runs or records. Numbers after ± are the reported error.
UCHL1: Ubiquitin carboxyl-terminal hydrolase isozyme L1 (UCHL1, Homo sapiens, UniProt P09936)
Voltage-dependent P/Q-type calcium channel subunit alpha-1A: Voltage-dependent P/Q-type calcium channel subunit alpha-1A (Homo sapiens, UniProt O00555)
ADRA2C: Alpha-2C adrenergic receptor (ADRA2C, Homo sapiens, UniProt P18825)

`O=c1ccc2c(OCCCCOc3cccc(O)c3)c3ccoc3cc2o1` gave a Hill coefficient of 2 (Kcna3 (Mus musculus, UniProt P16390); potassium current, blocker; L929).
`C[C@H]1O[C@H](O[C@H]2[C@H](O)[C@@H](O)[C@@H](O[C@H]3[C@H](O)[C@@H](O)C(O)O[C@@H]3CO)O[C@@H]2CO)[C@H](O)[C@@H](O)[C@@H]1N[C@H]1C=C(CO)[C@@H](O)[C@H](O)[C@H]1O` (stereo partly drawn) — result for “abnormal band quantity”: 9.94 a.u. (α-amylase isoenzymes; native PAGE densitometry; 1 mg/mL; baseline: untreated enzyme (band absent)).
`CC(NS(=O)(=O)c1ccc(CCC(=O)N2CCN(C)CC2)cc1)c1ccccc1` (stereo not drawn) has an inhibition of -15.6% (Trypanosoma cruzi; reporter translation, Renilla luciferase mRNA translation; cell-free extract; 40 µM; baseline: DMSO).
For `CC1=C[C@H](O/C=C2/C(=O)O[C@@H]3c4ccccc4C[C@H]23)OC1=O` (racemic), the TR-FRET signal was 2.59 (D14, with SMXL7 (Arabidopsis thaliana, UniProt Q9SQR3); complex formation with SMXL7, agonist, TR-FRET; 50 µM, 300 min, unit not given, together with: Arabidopsis SMXL7 10 µg/mL, D14-mEGFP 100 nM; baseline: control).
`O=C(Nc1cccc2c(=O)cc(-c3nnn[nH]3)oc12)c1ccc(OCCCCc2ccccc2)cc1` has a Hill coefficient of 1.08 (Volume-regulated anion channel subunit LRRC8C, part LRRC8A IL1 chimera (LRRC8C, Homo sapiens, UniProt Q8TDW0); ion current, inhibitor, whole-cell patch clamp; HCT116 LRRC8 knockout, transfected; +100 mV, hypotonic swelling, normal ionic strength).
`COC(=O)[C@H](CCSC(F)(F)F)NS(=O)(=O)c1cccc(Cl)c1O` has a remaining activity of 75% (malate dehydrogenase; enzyme activity, inhibitor; 200 µM, pH 7.0, 1% DMSO, aggregation counter-screen).
`CC(=O)N[C@@H](Cc1c[nH]cn1)C(=O)N[C@@H](CC(=O)O)C(=O)N1CCC[C@H]1C(=O)N1CCC[C@H]1C(=O)N[C@@H](CC(C)C)C(=O)N[C@@H](Cc1c[nH]cn1)C(=O)N[C@@H](CO)C(=O)N[C@H](C(=O)N[C@@H](C)C(N)=O)[C@@H](C)OP(=O)(O)O` gave a binding stoichiometry of 1.01 (PLK1 (Homo sapiens, UniProt P53350); polo-box domain binding, isothermal titration calorimetry; concentration not given, 25 °C).
With `[O-][S+]1CCCCS1` (stereo not drawn) the target engagement was 20.7% (SOD1 (Homo sapiens, UniProt P00441, G94A); intact protein LC-MS; SOD1 G93A transgenic mice, whole blood; intravenous, 10 mg/kg, 48 h, mean of two mice).
For `Cc1c(C(=O)Nc2ccccc2C(=O)O)oc2c1C(O)CC(C)(C)C2` (stereo not drawn), the luminescence was 67800 a.u. (B4GALT1 (Homo sapiens, UniProt P15291); enzyme activity, inhibitor, UDP-Glo; 100 µM; lower means stronger inhibition).
The labelling of `CC#CC(=O)N1CCC(CNC(=O)c2ccc(C)c(F)c2)CC1` is reported as 12.3% (UCHL1; covalent, intact protein LC-MS; 12.5 µM).
For `CCCn1ncc(CN2CCCC(C(=O)c3cccc(OC(C)C)c3)C2)c1C` (stereo not drawn), the inhibition was 9% (Trypanosoma cruzi; reporter translation, Renilla luciferase mRNA translation; cell-free extract; 40 µM; baseline: DMSO).
For `CC/C=C(\C)C=O`, the conversion was 15% (Uncharacterized protein PH0856 (Pyrococcus horikoshii, UniProt O58586); substrate; pH 8, 30 °C, aerobic, together with: NADH).
The inhibition of `O=C1NCCN1CCN1CCC(c2cn(-c3ccc(F)cc3)c3ccc(Cl)cc23)CC1` is reported as 42% (Voltage-dependent P/Q-type calcium channel subunit alpha-1A; ion current, antagonist; HEK293; 3 µM).
`N#CC(=Cc1cccnc1)C(=O)Nc1cccc2ccccc12` gave a labelling of 27.2% (UCHL1; covalent, intact protein LC-MS; 12.5 µM).
For `N#Cc1cnn(C(=O)N2CCN(Cc3ccc(OCc4ccccc4)cc3)CC2)c1`, “time to maximal inhibition” read 1 h (Faah (Rattus norvegicus, UniProt P97612); inhibitor; 5 nM, pH 9, 25 °C).
For `CCc1cc(SC#N)cc(CC)c1NC(=O)CCl`, the labelling was 7.89% (UCHL1; covalent, intact protein LC-MS; 12.5 µM).
For `Nc1ncnc2c1ncn2[C@@H]1O[C@H](CO[P@](=O)(O)O[P@](=O)(O)O[P@@](=O)(O)S)[C@@H](O)[C@H]1O`, the ΔH was -6.4 ± 0.29 kcal/mol (GUK1 (Homo sapiens, UniProt Q16774, S18A); binding, ITC).
The labelling of `C=CCNC(=O)C(C#N)=Cc1ccccc1[N+](=O)[O-]` is reported as 5.79% (UCHL1; covalent, intact protein LC-MS; 12.5 µM).
`N[C@@H](CCC(=O)O)C(=O)O` gave a mean current of 8.7 µA (glc-2 (Caenorhabditis elegans, UniProt Q17328); two-electrode voltage clamp; Xenopus laevis oocytes).
With `N#CC(=Cc1cccc(F)c1)C(=O)Nc1ccc(SC(F)F)cc1` the labelling was 18.1% (UCHL1; covalent, intact protein LC-MS; 12.5 µM).
`Nc1ncnc2c1ncn2[C@@H]1O[C@H](COP(=O)(O)OP(=O)(O)OP(=O)(O)O)[C@@H](O)[C@H]1O` gave a normalized current of 1 (P2X purinoceptor 7 (P2rx7, Rattus norvegicus, UniProt Q64663, R125A); ion current, agonist, two-electrode voltage clamp; Xenopus laevis oocytes; 1500 µM; baseline: highest concentration response).
With `COCCC(=O)N1CCC(Oc2ccccc2)C1` (stereo not drawn) the fold enrichment was 1.9 (Leucine-rich repeat serine/threonine-protein kinase 2, WD40 domain (LRRK2, Homo sapiens, UniProt Q5S007); binding, affinity selection mass spectrometry; baseline: other proteins in batch).
`CC(C)(C)OC(=O)[C@@H]1C[C@H]1C(=O)CCl` gave a labelling of 27.5% (UCHL1; covalent, intact protein LC-MS; 12.5 µM).
`O=C(O)c1ccc([N+](=O)[O-])cc1` gave a current density of 66.7 pA/pF and 59.6 pA/pF and 36.6 pA/pF and 78.5 pA/pF and 36.2 pA/pF and 74.2 pA/pF and 108 pA/pF (BEST1 (Homo sapiens, UniProt O76090); whole-cell patch clamp; HEK293 transiently expressing channel; concentration not given, membrane potential 60 mV).
`Cn1ncc(S(=O)(=O)NCc2ccn(-c3ccc(Br)cc3)n2)c1C(=O)O` gave a remaining activity of 75% (malate dehydrogenase; enzyme activity, inhibitor; 200 µM, pH 7.0, 1% DMSO, aggregation counter-screen).
`C=CC(=O)N1CCC[C@@H](n2nc(-c3ccc(Oc4ccccc4)cc3)c3c(N)ncnc32)C1` has a remaining activity of 38.1% (TNK2 (Homo sapiens, UniProt Q07912); 10 µM).
The inhibition of `COc1ccc2c(c1)c(CC(=O)O)c(C)n2C(=O)c1ccc(Cl)cc1` is reported as -1% (Voltage-dependent P/Q-type calcium channel subunit alpha-1A; ion current, antagonist; HEK293; 3 µM).
`Cc1ncsc1-c1ccc(CNC(=O)[C@@H]2C[C@@H](O)CN2C(=O)[C@@H](NC(=O)C2(F)CC2)C(C)(C)C)c(OCCOCCOCCN2CCN(c3cc(-c4ccccc4O)nnc3N)CC2)c1`: “cooperativity factor alpha” 2.6 (SMARCA2 bromodomain, human; ternary complex binding, TR-FRET competition; together with: VCB R69A mutant).
For `CC[C@@H]1[C@H](F)C(=O)N[C@@H]1COc1nccc2cc(C(N)=O)c(OC)cc12`, the inhibition was -5.7% (MAP3K4 (Homo sapiens, UniProt Q9Y6R4); ATP-site probe binding, ActivX profiling; THP-1 cell lysate; 0.04 mM, Lys2 site).
`CCS(=O)(=O)N1CC(CC#N)(n2cc(-c3ncnc4[nH]ccc34)cn2)C1`: “change in binding constant” -37% (ORM1 (Homo sapiens, UniProt P02763); together with: Ni2+).
The decatenated DNA of `O=c1nc(SCc2cc(F)cc(C(F)(F)F)c2)nc(SCc2ccc3nc(Cl)ccc3c2)[nH]1` is reported as 0.55% (TOP2B (Homo sapiens, UniProt Q02880); decatenation; 31.25 µM, replicate 2).
The labelling of `C#CCOc1ccc(C=C2C(=O)ON=C2C)cc1OCC` is reported as 21.9% (UCHL1; covalent, intact protein LC-MS; 12.5 µM).
`Cc1cc(Oc2ncccc2CN2CCN(CCc3ccccc3)CC2)ccc1-c1c(C)c(=O)[nH]c(=O)n1C` gave a selectivity ratio of 17 (ADRA2C; binding, radioligand binding; together with: [3H]rauwolscine; baseline: Ki alpha2A over Ki alpha2C).
`C=C1C(=O)O[C@@H]2C[C@@]3(C)CCCC(=C)[C@@H]3C[C@H]12` has an activation of 0.48 fold (HNF4A (Homo sapiens, UniProt P41235); reporter gene, Gal4 hybrid reporter; 10 µM; baseline: vehicle).
For `Cc1cc(Oc2ncccc2CN2CCN(c3ncccc3C(F)(F)F)CC2)ccc1-c1c(C)c(=O)[nH]c(=O)n1C`, the selectivity ratio was 4 (ADRA2C; binding, radioligand binding; together with: [3H]rauwolscine; baseline: Ki alpha2B over Ki alpha2C).
For `[2H]c1cc(C)c(NC(=O)c2cnc(Nc3cc(N4CCCCC4)nc(C)n3)s2)c(Cl)c1`, the inhibition was under 30% (PDGFRA (Homo sapiens, UniProt P16234, T674I); 0.01 µM).
`Nc1nc(SCc2ccc(Cl)cc2)nn1S(=O)(=O)c1ccc([N+](=O)[O-])cc1`: “probe labeling increase” 2.4 fold (Lysophospholipase-like protein 1 (Mus musculus, UniProt Q3UFF7); enzyme activity, activator, gel-based ABPP; purified protein; concentration not given, together with: FP-rhodamine; baseline: DMSO).
`CCCC(=O)NN(CC)c1cc(C)c(C#N)c(Cl)n1` has a labelling of 9.25% (UCHL1; covalent, intact protein LC-MS; 12.5 µM).
Under “melting temperature shift”, `O=c1cc(-c2ccc([N+](=O)[O-])cc2)[nH]c2c(-c3ccc(Cl)cc3)c(Cc3ccccc3)nn12` is recorded as 4.1 °C (Inactive glycosyltransferase 25 family member 3 (CERCAM, Homo sapiens, UniProt Q5T4B2); thermal stability, binder, thermal proteome profiling; RD, cell lysate; 50 µM, 0.5% DMSO; baseline: DMSO vehicle).

Excerpt of the above:
For `CC[C@@H]1[C@H](F)C(=O)N[C@@H]1COc1nccc2cc(C(N)=O)c(OC)cc12`, the inhibition was -5.7% (MAP3K4 (Homo sapiens, UniProt Q9Y6R4); ATP-site probe binding, ActivX profiling; THP-1 cell lysate; 0.04 mM, Lys2 site).
`CCS(=O)(=O)N1CC(CC#N)(n2cc(-c3ncnc4[nH]ccc34)cn2)C1`: “change in binding constant” -37% (ORM1 (Homo sapiens, UniProt P02763); together with: Ni2+).
The decatenated DNA of `O=c1nc(SCc2cc(F)cc(C(F)(F)F)c2)nc(SCc2ccc3nc(Cl)ccc3c2)[nH]1` is reported as 0.55% (TOP2B (Homo sapiens, UniProt Q02880); decatenation; 31.25 µM, replicate 2).
The labelling of `C#CCOc1ccc(C=C2C(=O)ON=C2C)cc1OCC` is reported as 21.9% (UCHL1; covalent, intact protein LC-MS; 12.5 µM).
`Cc1cc(Oc2ncccc2CN2CCN(CCc3ccccc3)CC2)ccc1-c1c(C)c(=O)[nH]c(=O)n1C` gave a selectivity ratio of 17 (ADRA2C; binding, radioligand binding; together with: [3H]rauwolscine; baseline: Ki alpha2A over Ki alpha2C).
